Published values of several laboratories.
Cell line: SW-620

Compound	test	conditions	how to read	measurement	value
O=c1ccn(Cc2cn(-c3c4ccccc4nc4ccccc34)nn2)c(=O)[nH]1	NCI60 single-dose screen	10 µM		growth percentage	93%
Cn1cncc1C1=CN(c2ncnc3[nH]cnc23)CCS1		colon cancer		TGI	40.7 µM
CCN(CC)c1ccc(C=NNC(=O)CSc2nc3ccccc3c(=O)n2Cc2ccc(S(N)(=O)=O)cc2)c(O)c1	NCI five-dose screen			TGI	> 100 µM
CSc1nc(-c2ccc(Cl)cc2)c2c(NC(=O)c3ccccc3)nnc-2[nH]1	SRB	10 µM, NCI60 single-dose screen, colon cancer	relative to: untreated	cell growth	105%
O=c1ccn(Cc2cn(-c3cc4ccccc4oc3=O)nn2)c(=O)[nH]1	NCI60 single-dose screen	10 µM		growth percentage	104%
O=P1(C2CCCCC2)CCCCC1	Annexin V-FITC/PI flow cytometry	IC50, 72 h		late apoptotic cells	4.55%
CCn1cc(-c2cc(Cn3ccoc3=N)cc3c2CCN([C@@H](C)c2cc(OC)ccn2)C3=O)c(C(F)(F)F)n1	cell growth, inhibitor	120 h		EC50	0.0119 µM
C#C[C@@]1(O)[C@@H](CO)O[C@@H](n2cc(I)c3c(N)ncnc32)[C@@H]1O	SRB	NCI-60 screen		TGI	> 100 µM
CCOc1ccc(-c2nc3cc(-c4nc5cc(N6CCN(C)CC6)ccc5[nH]4)ccc3[nH]2)cc1OCC	SRB	10 µM, 48 h		growth percent	0.49%
Cc1cc(=O)[nH]c(=O)n1Cc1cn(-c2c3ccccc3nc3ccccc23)nn1	NCI60 single-dose screen	10 µM		growth percentage	83.9%
CCCN1CCN(c2ccc3[nH]c(-c4ccc5[nH]c(-c6ccc(C(F)(F)F)cc6)nc5c4)nc3c2)CC1	SRB	10 µM, 48 h		growth percent	-82.6%
Cc1cc(C)n(-c2nc(-c3ccc(Cl)cc3)c3c(NC(=O)c4ccccc4)nnc-3[nH]2)n1	SRB	10 µM, NCI60 single-dose screen, colon cancer	relative to: untreated	cell growth	95.2%
CCCCN1CCN(c2ccc3[nH]c(-c4ccc5[nH]c(-c6ccc(OCC)cc6)nc5c4)nc3c2)CC1	SRB	10 µM, 48 h		growth percent	8.61%
O=C(Nc1nnc2n3c(=S)[nH][nH]c3nc(-c3ccc(Cl)cc3)c1-2)c1ccccc1	SRB	10 µM, NCI60 single-dose screen, colon cancer	relative to: untreated	cell growth	106%
O=C(/C=C/C=C/C=C/C1CCCCC1)NC1=C[C@@](O)(/C=C/C=C/C=C/C(=O)NC2=C(O)CCC2=O)[C@@H]2O[C@@H]2C1=O	cell growth, CellTiter-Glo	78 h		GI50	20.9 µM
O=C(Nc1nnc2n3c(Cc4ccccc4)n[nH]c3nc(-c3ccc(Cl)cc3)c1-2)c1ccccc1	SRB	10 µM, NCI60 single-dose screen, colon cancer	relative to: untreated	cell growth	101%
COc1ccc(OC)c(-c2nc3ccc(-c4nc5ccc(N6CCN(C)CC6)cc5[nH]4)cc3[nH]2)c1	SRB	10 µM, 48 h		growth percent	102%

Excerpt of the above:
Compound	test	conditions	how to read	measurement	value
CCCCN1CCN(c2ccc3[nH]c(-c4ccc5[nH]c(-c6ccc(OCC)cc6)nc5c4)nc3c2)CC1	SRB	10 µM, 48 h		growth percent	8.61%
